# Measured values of several laboratories.
# Protocols differ between the studies behind these lines. ± marks the error that the study gave.
Substance,tested on,assay,test system,conditions,how to read,quantity,result
CCCCSCCCNC(=O)C1CCN(Cc2nc(-c3ccc(CC)cc3)oc2C)CC1,SARS-CoV-2,cytopathic effect,USA_WA1/2020,retest 8-point,,maximum response,80%
CC(C)N1CCC(NC(=O)c2ccccc2C(F)(F)F)CC1,Influenza A virus,viral entry,"A549, H5N1 HA virus-like particles","12.5 µM, A/Goose/Qinghai/59/05 HA",,inhibition,37%
CCc1c(C(=O)C(N)=O)c2c(OCC(=O)O)cccc2n1Cc1ccccc1,Daboia russelii,,mouse,"intravenous, 120 µg/mouse, 24 h, drug mixture, together with: RJ venom 2.5 x LD50 preincubated",,survival,100%
COc1ccc(Nc2nc(Nc3ccc(OC)cc3OC)nc(N3CCOCC3)n2)c(OC)c1,SARS-CoV-2,cytopathic effect,USA_WA1/2020,retest 8-point,,maximum response,86.4%
COc1ccc(NC(=O)NCC2CCOC3(CCN(C(=O)C4(c5ccccc5)CCCC4)CC3)C2)cc1 (stereo not drawn),Venezuelan equine encephalitis virus,viral replication,,40 µM,,inhibition,80%
Nc1ncnc2c([C@@H]3N[C@H](CO)[C@@H](O)[C@H]3O)c[nH]c12,Junin virus,viral replication,"HeLa, Romero",0.8 µM,,inhibition,4.7%
CC[C@H](C)[C@H](NC(=O)[C@H](CC(C)C)NC(=O)[C@H](Cc1c[nH]c2ccccc12)NC(=O)[C@H](CCC(N)=O)NC(=O)[C@@H](NC(=O)[C@H](Cc1ccccc1)NC(=O)[C@H](C)NC(=O)[C@H](CCCCNC(=O)COCCOCCNC(=O)COCCOCCNC(=O)CC[C@H](NC(=O)CCCCCCCCCCCCCCCCCCC(=O)O)C(=O)O)NC(=O)[C@H](CCC(N)=O)NC(=O)[C@H](C)NC(=O)[C@@H](NC(=O)[C@H](CCCCN)NC(=O)[C@H](CC(=O)O)NC(=O)[C@H](CC(C)C)NC(=O)C(C)(C)NC(=O)[C@@H](NC(=O)[C@H](CO)NC(=O)[C@H](Cc1ccc(O)cc1)NC(=O)[C@H](CC(=O)O)NC(=O)[C@H](CO)NC(=O)[C@@H](NC(=O)[C@H](Cc1ccccc1)NC(=O)[C@@H](NC(=O)CNC(=O)[C@H](CCC(=O)O)NC(=O)C(C)(C)NC(=O)[C@@H](N)Cc1ccc(O)cc1)[C@@H](C)O)[C@@H](C)O)[C@@H](C)CC)[C@@H](C)CC)C(C)C)C(=O)N[C@@H](C)C(=O)NCC(=O)NCC(=O)N1CCC[C@H]1C(=O)N[C@@H](CO)C(=O)N[C@@H](CO)C(=O)NCC(=O)N[C@@H](C)C(=O)N1CCC[C@H]1C(=O)N1CCC[C@H]1C(=O)N1CCC[C@H]1C(=O)N[C@@H](CO)C(N)=O,,,human,"subcutaneous, 5.0 mg once weekly, week 7, multiple doses",,Vz/F,8.01 L
O=C(/C=C/c1ccc(O)c(O)c1)O[C@@H]1C[C@@](O)(C(=O)O)C[C@@H](O)[C@@H]1O,"Pseudovirus, SARS-CoV-2 spike",viral entry,,concentration not given,,inhibition,46.6%
Teicoplanin,SARS-CoV-2 pseudovirus,viral entry,,10 µM,,inhibition,42.7 ± 5.31%
CC(C)(C)C(O)(CCc1ccc(Cl)cc1)Cn1cncn1 (stereo not drawn),Xanthomonas oryzae pv. oryzicola,bacterial growth,,128 µg/mL,,inhibition,100%
O=C(NCC1CCOC2(CCN(C(=O)C3(c4ccccc4)CCCC3)CC2)C1)C1CC1 (stereo not drawn),Venezuelan equine encephalitis virus,viral replication,,40 µM,,inhibition,70%
Cc1cc(NC(=O)c2cc3c(=O)n4cccc(C)c4nc3n2C)ccc1Br,Severe acute respiratory syndrome coronavirus 2,"viral replication, inhibitor, qPCR",Vero C1008,1 µM,,inhibition,92.7%
CN(C)S(=O)(=O)NCC1CCOC2(CCN(C(=O)C3(c4cccc(C(F)(F)F)c4)CCCC3)CC2)C1 (stereo not drawn),Venezuelan equine encephalitis virus,viral replication,,40 µM,,inhibition,50%
Nc1ccn([C@@H]2O[C@H](CO)[C@@H](O)C2(F)F)c(=O)n1,Enterovirus C,"viral replication, refers to: Gaussia luciferase",HeLa,"10 µM, 48 h",,inhibition,96.6%
CC[C@H](C)[C@H](NC(=O)[C@H](CC(C)C)NC(=O)[C@H](Cc1c[nH]c2ccccc12)NC(=O)[C@H](CCC(N)=O)NC(=O)[C@@H](NC(=O)[C@H](Cc1ccccc1)NC(=O)[C@H](C)NC(=O)[C@H](CCCCNC(=O)COCCOCCNC(=O)COCCOCCNC(=O)CC[C@H](NC(=O)CCCCCCCCCCCCCCCCCCC(=O)O)C(=O)O)NC(=O)[C@H](CCC(N)=O)NC(=O)[C@H](C)NC(=O)[C@@H](NC(=O)[C@H](CCCCN)NC(=O)[C@H](CC(=O)O)NC(=O)[C@H](CC(C)C)NC(=O)C(C)(C)NC(=O)[C@@H](NC(=O)[C@H](CO)NC(=O)[C@H](Cc1ccc(O)cc1)NC(=O)[C@H](CC(=O)O)NC(=O)[C@H](CO)NC(=O)[C@@H](NC(=O)[C@H](Cc1ccccc1)NC(=O)[C@@H](NC(=O)CNC(=O)[C@H](CCC(=O)O)NC(=O)C(C)(C)NC(=O)[C@@H](N)Cc1ccc(O)cc1)[C@@H](C)O)[C@@H](C)O)[C@@H](C)CC)[C@@H](C)CC)C(C)C)C(=O)N[C@@H](C)C(=O)NCC(=O)NCC(=O)N1CCC[C@H]1C(=O)N[C@@H](CO)C(=O)N[C@@H](CO)C(=O)NCC(=O)N[C@@H](C)C(=O)N1CCC[C@H]1C(=O)N1CCC[C@H]1C(=O)N1CCC[C@H]1C(=O)N[C@@H](CO)C(N)=O,,,healthy human,"2.5 mg, single ascending dose",,treatment-emergent adverse events,16.7%
O=C(O[C@@H]1Cc2c(O)cc(O)cc2O[C@@H]1c1cc(O)c(O)c(O)c1)c1cc(O)c(O)c(O)c1,Severe acute respiratory syndrome coronavirus 2,cytopathic effect,Vero C1008,6.25 µM,,inhibition,0%
CC(C)NC(=O)NCC1CCOC2(CCN(C(=O)C3(c4ccccc4)CCCC3)CC2)C1 (stereo not drawn),Venezuelan equine encephalitis virus,viral replication,,40 µM,,inhibition,60%
CCOc1ccc(Cc2nccc3cc(OCC)c(OCC)cc23)cc1OCC,Enterovirus C,"viral replication, refers to: Gaussia luciferase",HeLa,"10 µM, 48 h",,inhibition,82.8%
C=C[C@@](C)(/C=C/c1ccc(O)cc1)CCC=C(C)C,Severe acute respiratory syndrome coronavirus 2,"cytopathic effect, inhibitor",Vero C1008,50 µM,,inhibition,0%
CC(C)(C)[C@H](NC(=O)C(F)(F)F)C(=O)N1C[C@H]2[C@@H]([C@H]1C(=O)N[C@H](C#N)C[C@@H]1CCNC1=O)C2(C)C,,,"human, fasted","oral, 150 mg single dose, 28 days, no ritonavir",,participants with related adverse events,0%
O=C(Nc1ccccc1F)c1cc2c(=O)n3ccccc3nc2n1Cc1ccccc1,Severe acute respiratory syndrome coronavirus 2,"viral replication, inhibitor, qPCR",Vero C1008,10 µM,,inhibition,95.9%
NCC1(O)CCOC2(CCN(C(=O)C3(c4ccccc4)CCCC3)CC2)C1 (stereo not drawn),Venezuelan equine encephalitis virus,viral replication,,40 µM,,inhibition,70%
CNC(=O)[C@@H](NC(=O)[C@H](CC(C)C)[C@H](O)C(=O)NO)C(C)(C)C,human fibrinogen,SDS-PAGE,Daboia russelii,"concentration not given, unit not given, together with: GA venom",relative to: untreated fibrinogen,remaining fibrinogen γ chain,0.99
CC(C)(C)[C@H](NC(=O)C(F)(F)F)C(=O)N1C[C@H]2[C@@H]([C@H]1C(=O)N[C@H](C#N)C[C@@H]1CCNC1=O)C2(C)C,SARS-CoV-2,"viral replication, infectious virus",Vero E6,0.25 µM,,inhibition,100%
CS(=O)(=O)N(Cc1ccccc1)CC1CCOC2(CCN(C(=O)C3(c4ccccc4)CCCC3)CC2)C1 (stereo not drawn),Venezuelan equine encephalitis virus,viral replication,,40 µM,,inhibition,70%
CC(C)=CCc1c(O)ccc(C(=O)/C=C/c2ccc(O)cc2)c1O,Severe acute respiratory syndrome coronavirus 2,cytopathic effect,Vero C1008,1.562 µM,,inhibition,0%
Cn1c(C(=O)Nc2ccc(Cl)cc2)cc2c(=O)n3ccccc3nc21,Severe acute respiratory syndrome coronavirus 2,"viral replication, inhibitor, qPCR",Vero C1008,1 µM,,inhibition,88.2%
Cn1cnc(Cn2c(=O)[nH]/c(=N\c3cc4cn(C)nc4cc3Cl)n(Cc3cc(F)c(F)cc3F)c2=O)n1,,,"human, normal renal function, plasma","oral, 375 mg single dose, 3 h",,unbound fraction,0.013
Cc1ccc(C2(C(=O)N3CCC4(CC3)CC(CNS(C)(=O)=O)CCO4)CCCC2)cc1 (stereo not drawn),Venezuelan equine encephalitis virus,viral replication,,40 µM,,inhibition,< 10%
COc1ccc(C[C@@H]2c3cc(Oc4cc(C[C@@H]5c6cc(O)c(OC)cc6CCN5C)ccc4O)c(OC)cc3CCN2C)cc1,Severe acute respiratory syndrome coronavirus 2,"cytopathic effect, inhibitor",Vero C1008,1.562 µM,,inhibition,0%

# For quick reference, copied from above:
Substance,tested on,assay,test system,conditions,how to read,quantity,result
O=C(/C=C/c1ccc(O)c(O)c1)O[C@@H]1C[C@@](O)(C(=O)O)C[C@@H](O)[C@@H]1O,"Pseudovirus, SARS-CoV-2 spike",viral entry,,concentration not given,,inhibition,46.6%
O=C(Nc1ccccc1F)c1cc2c(=O)n3ccccc3nc2n1Cc1ccccc1,Severe acute respiratory syndrome coronavirus 2,"viral replication, inhibitor, qPCR",Vero C1008,10 µM,,inhibition,95.9%
